Measurements gathered from unrelated publications.
Protocols differ between the studies behind these lines. Values joined by “and” are separate records of one study, mostly repeats; a detail may differ. ± marks the error that the study gave. In brackets after ≈: the same amount, converted by molar mass.

Compound	tested on	test	system	conditions	scale	endpoint	value
CC(C)c1ccc(N(C)c2ccc3c(c2)OCC[C@H]3CNc2cnccc2C(=O)O)cc1	NCI-H929	cell viability, CellTiter-Glo	–	7 days	–	IC50	0.0345 µM
C=C(NC(=O)c1csc(-c2nc3c(cc2O)-c2nc(cs2)C(=O)NC(C(C)O)C(=O)NC(=C(C)OC)c2nc(cs2)C(=O)NC2c4nc(cs4)C(=O)NC(COC(=O)c4c5c6c(cccc6n4O)COC(=O)C(OC4CC(C)(O)C(N(C)C)C(C)O4)C2OC5)c2nc-3cs2)n1)C(N)=O (stereo not drawn)	Enterococcus faecium	microbial growth	–	clinical isolate	–	MIC50	0.0156 µg/mL (≈ 0.0109 µM)
COC1OC(C)C(O)C(OC2OC(C)C(O)C(OC3OC(C)C(O)C(OC4OC(C)C(O)C(OC5OC(C)C(O)C(OC6OC(C)C(O)C(OC7OC(C)C(O)C(OC8OC(C)C(O)C(OS(=O)(=O)O)C8OS(=O)(=O)O)C7OS(=O)(=O)O)C6OS(=O)(=O)O)C5OS(=O)(=O)O)C4OS(=O)(=O)O)C3OS(=O)(=O)O)C2OS(=O)(=O)O)C1OS(=O)(=O)O (stereo not drawn)	–	–	human plasma	128 µg/mL	–	thrombin time	10.2 ± 0.4 s
COc1cc2c(NC3CCN(C(C)C)CC3)cc(N3CCOCC3)nc2cc1OCCCN1CCCC1	–	TMT quantitative proteomics, measured: LDHB	5xFAD mice, hippocampus	dose not given	–	normalised protein abundance	-0.029 and 0.00515 and -0.00195 and -0.0585 and -0.0465 and -0.0544 and -0.0318 and -0.0641
Cc1cccc2c1N(C(=O)n1ccnn1)CC2	Arabidopsis thaliana	–	wild type, seeds	100 µM, high ambient temperature	–	germination rate	8.3% and 3.1% and 75% and 60.6% and 66.7% and 58.7%
CNS(=O)(=O)Nc1nccc(Cc2c(C)c3ccc(Oc4ncccc4F)cc3oc2=O)c1F	Hs746T	cell viability	–	7 days	–	IC50	0.0568 µM
COC1OC(C)C(OC2OC(C)C(OS(=O)(=O)O)C(OC3OC(C)C(OC4OC(C)C(OS(=O)(=O)O)C(OS(=O)(=O)O)C4OS(=O)(=O)O)C(OS(=O)(=O)O)C3OS(=O)(=O)O)C2OS(=O)(=O)O)C(OS(=O)(=O)O)C1OS(=O)(=O)O (stereo not drawn)	–	–	human plasma	128 µg/mL	–	thrombin time	10.7 ± 0.5 s
C=CC(=O)Nc1cccc(Cn2ncc3cnc(Nc4cnn(CCOC)c4)nc32)c1	human TEC	KINOMEscan	–	100 nM	baseline: control	binding	4.1%
Fc1ccc(Nc2nc(NC3CCCCC3)c3cc(Br)ccc3n2)cc1F	β2AR/β1AR TM7 chimera	β-arrestin2 recruitment, antagonist, BRET	–	with: isoprenaline 1 µM	–	pIC50	6.4
CCN(CC)CC(=O)Nc1cccc(-n2cc(-c3ccc4ccc(-c5cn(-c6cccc(NC(=O)CN(CC)CC)c6)nn5)cc4c3)nn2)c1	RCC4	PCR angiogenesis array, measured: CXCL5	–	5 x IC50, 6 h, normoxia	baseline: untreated	fold regulation	-1.42
Cc1ncsc1-c1ccc(C(C)NC(=O)C2CC(O)CN2C(=O)C(NC(=O)CCCCCCCCCCN2CCCC(Nc3ncc(Cl)c(Nc4ccccc4S(=O)(=O)C(C)C)n3)C2)C(C)(C)C)cc1 (stereo not drawn)	22Rv1	RNA-seq, measured: ZNF607 mRNA	–	concentration not given	baseline: DMSO	log2 fold change	-1.59
COc1cc(O)ccc1CCC(c1ccc(O)cc1)c1cc2c(c(C)c1O)OC(c1ccc(O)cc1)CC2 (mixture of isomers)	–	–	human blood	3 µM, with: A23187	–	PGE2 level	29 ± 8 pg/mL
COc1ccccc1-c1ccncc1C(=O)Nc1nnc(OCc2ccc(Cl)cc2)s1	PEO1 BRCA2-mutant ovarian cancer	–	–	1.00 µM, with: olaparib 1 µM	–	colony survival	0%
C=CC(=O)N1[C@@H](c2ccc3c(c2)OCO3)c2[nH]c3ccccc3c2C[C@H]1C(=O)N1CCN(C)CC1	CCNE1 WT-3xFLAG:CDK2 complex	co-IP TMT proteomics, measured: MNAT1	HEK-293T	20 µM, 6 h	baseline: DMSO	log2 fold change	0.0426
c1ccc(-c2n[nH]cc2-c2ccnc3ccccc23)nc1	IRE1 (Candida albicans)	kinase binding, MIB/MS competition	Candida albicans lysate	1 µM	baseline: DMSO	log2 fold change	0
COC1OC(C)C(OS(=O)(=O)O)C(OC2OC(C)C(OS(=O)(=O)O)C(OC3OC(C)C(OS(=O)(=O)O)C(OC4OC(C)C(OS(=O)(=O)O)C(OC5OC(C)C(OS(=O)(=O)O)C(OC6OC(C)C(OS(=O)(=O)O)C(OC7OC(C)C(OS(=O)(=O)O)C(OS(=O)(=O)O)C7OS(=O)(=O)O)C6OS(=O)(=O)O)C5OS(=O)(=O)O)C4OS(=O)(=O)O)C3OS(=O)(=O)O)C2OS(=O)(=O)O)C1OS(=O)(=O)O (stereo not drawn)	–	–	human plasma	128 µg/mL	–	thrombin time	10.5 ± 0.7 s
COC1CN([C@H]2CC[C@H]([C@@]3(C)Oc4c(Cl)cc(C(=O)NCc5c(SC)cc(C)[nH]c5=O)c(C)c4O3)CC2)C1	–	RNA-seq, measured: PHLPP1	human, whole blood	dose not given, 24 h	baseline: pretreatment baseline	log2 fold change	1.77
COC1OC(C)C(OC2OC(C)C(OS(=O)(=O)O)C(OC3OC(C)C(OC4OC(C)C(OS(=O)(=O)O)C(OS(=O)(=O)O)C4O)C(OS(=O)(=O)O)C3O)C2O)C(OS(=O)(=O)O)C1O (stereo not drawn)	–	–	human plasma	128 µg/mL	–	thrombin time	9.6 ± 0.3 s
Nc1ncc(-c2cc(-c3cnn(CC(F)(F)F)c3)ncc2F)nc1C(=O)NC1CNCC(F)C1 (stereo not drawn)	JNK3	KINOMEscan competition binding	–	1 µM	baseline: DMSO control	remaining binding	100%
COC1OC(C)C(OC2OC(C)C(OS(=O)(=O)O)C(OC3OC(C)C(OC4OC(C)C(OS(=O)(=O)O)C(OC5OC(C)C(OC6OC(C)C(OS(=O)(=O)O)C(OC7OC(C)C(OS(=O)(=O)O)C(OS(=O)(=O)O)C7O)C6O)C(OS(=O)(=O)O)C5O)C4O)C(OS(=O)(=O)O)C3O)C2O)C(OS(=O)(=O)O)C1O (stereo not drawn)	–	–	human plasma	128 µg/mL	–	thrombin time	10.2 ± 0.4 s
CN1CCCNC(=O)c2cccc(c2)C(=O)NCCCN(C)CCCNc2cccc3c2C(=O)c2cccc(c2C3=O)NCCC1	SAS	RNA-Seq, measured: TST mRNA	–	1 µM, 6 h	baseline: untreated cells	log2 fold change	1.34

Some of these lines once more:
Compound	tested on	test	system	conditions	scale	endpoint	value
C=C(NC(=O)c1csc(-c2nc3c(cc2O)-c2nc(cs2)C(=O)NC(C(C)O)C(=O)NC(=C(C)OC)c2nc(cs2)C(=O)NC2c4nc(cs4)C(=O)NC(COC(=O)c4c5c6c(cccc6n4O)COC(=O)C(OC4CC(C)(O)C(N(C)C)C(C)O4)C2OC5)c2nc-3cs2)n1)C(N)=O (stereo not drawn)	Enterococcus faecium	microbial growth	–	clinical isolate	–	MIC50	0.0156 µg/mL (≈ 0.0109 µM)
COC1OC(C)C(O)C(OC2OC(C)C(O)C(OC3OC(C)C(O)C(OC4OC(C)C(O)C(OC5OC(C)C(O)C(OC6OC(C)C(O)C(OC7OC(C)C(O)C(OC8OC(C)C(O)C(OS(=O)(=O)O)C8OS(=O)(=O)O)C7OS(=O)(=O)O)C6OS(=O)(=O)O)C5OS(=O)(=O)O)C4OS(=O)(=O)O)C3OS(=O)(=O)O)C2OS(=O)(=O)O)C1OS(=O)(=O)O (stereo not drawn)	–	–	human plasma	128 µg/mL	–	thrombin time	10.2 ± 0.4 s
COc1cc2c(NC3CCN(C(C)C)CC3)cc(N3CCOCC3)nc2cc1OCCCN1CCCC1	–	TMT quantitative proteomics, measured: LDHB	5xFAD mice, hippocampus	dose not given	–	normalised protein abundance	-0.029 and 0.00515 and -0.00195 and -0.0585 and -0.0465 and -0.0544 and -0.0318 and -0.0641
